# Experimental data from different studies.
# Parts stem from different laboratories: compare values within a part only.

# Sample 1
# Target: Ras GTPase-activating protein-binding protein 1, full length (G3BP1, Homo sapiens, UniProt Q13283)
# Chain of UniProt Q13283 (whole entry, looked up): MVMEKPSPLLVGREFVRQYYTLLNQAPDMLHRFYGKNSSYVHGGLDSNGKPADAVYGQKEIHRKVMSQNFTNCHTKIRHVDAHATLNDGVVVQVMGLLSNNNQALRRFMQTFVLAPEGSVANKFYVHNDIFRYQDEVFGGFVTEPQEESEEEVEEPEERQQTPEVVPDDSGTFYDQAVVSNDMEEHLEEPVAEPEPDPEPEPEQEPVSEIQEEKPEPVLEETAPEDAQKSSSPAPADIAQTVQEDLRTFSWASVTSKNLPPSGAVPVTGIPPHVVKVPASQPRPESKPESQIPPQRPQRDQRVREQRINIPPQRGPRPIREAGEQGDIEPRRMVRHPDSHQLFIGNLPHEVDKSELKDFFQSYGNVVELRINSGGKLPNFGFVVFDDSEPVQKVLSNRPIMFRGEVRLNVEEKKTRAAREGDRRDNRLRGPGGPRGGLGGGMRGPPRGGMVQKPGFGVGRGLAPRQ
# Method: RNA Bind-n-Seq
# Molecule type: RNA
# Medium: in vitro
# Concentration: 200 nM
# Notes: whole 134-nt RNA, ends assumed
# With: 150 mM KCl
# Relative to: input library
# Direction: higher = stronger binding
# All sequences stand within: GGGAGUUCUACAGUCCGACGAUC … UGGAAUUCUCGGGUGUCAAGG
Strand,log2 enrichment
GUCCUGUGCUACACAUCGUAUGUACCGAAUCGGGCCCCCGGGGCCCCCGGGCCCCCGGGAAAGUAUUAUGUUACGCCGUUCGGAUCUGCA,-0.727
CUGUGCUACACAUCGUAUGUACCGAAUCGGGAAAAAAAGGGUUUUUUUGGGAAAAAAAGGGAAAGUAUUAUGUUACGCCGUUCGGAUCUG,-1.31
UUCCUCAAGUCCUGUGCUACACAUCGUAUGUACCGAAUCGUGUGUGUGUGUAAAGUAUUAUGUUACGCCGUUCGGAUCUGCACUUCCAGC,-0.413
UGCCUCGGGAGGAGCUGUUUGUGACAUCCAAGCUGUGGAACACCAAGCACCACCCCGAGGAUGUGGAGCCUGCCCUCCGGAAGACUCUGG,-1.38
GACAGACAACACGCACCCACACAGACACAGAGGGAAGGGGUUGGGAUGGGGACAGGGUGCACAGCAGGGCGGGGUAGGACCCCAGCCCCU,1.78
GUCCUGUGCUACACAUCGUAUGUACCGAAUCAAAUUUUUUUAAACCCCCAAACCCAAAAAAGUAUUAUGUUACGCCGUUCGGAUCUGCAC,-0.282
CUGUGCUACACAUCGUAUGUACCGAAUCGGGGUUUUUUUGGGGUUUUUGGGGAAAAAGGGGAAAGUAUUAUGUUACGCCGUUCGGAUCUG,-0.364
UCAAGUCCUGUGCUACACAUCGUAUGUACCGAAUCGGGGUUGGGUUGGGGUUGGGAAAGUAUUAUGUUACGCCGUUCGGAUCUGCACUUC,0.835
AGUCCUGUGCUACACAUCGUAUGUACCGAAUCGGGGCCCCGGGCCCCGGGCCCCGGGGAAAGUAUUAUGUUACGCCGUUCGGAUCUGCAC,-0.581
UCAAGUCCUGUGCUACACAUCGUAUGUACCGAAUCGGAAAAAGGUUUUUGGUGGAAAGUAUUAUGUUACGCCGUUCGGAUCUGCACUUCC,-1.14
CAAGUCCUGUGCUACACAUCGUAUGUACCGAAUCGGGAAAAAGGGAAAGGGAGGGAAAGUAUUAUGUUACGCCGUUCGGAUCUGCACUUC,0.714

# Sample 2
# Target: Sal-like protein 4, full length isoform B (SALL4, Homo sapiens, UniProt Q9UJQ4-2, residues 1-616)
# Method: universal PBM
# Molecule type: double-stranded DNA, one strand shown
# Medium: in vitro
# Concentration: not given
# Notes: 8-mer, flanks averaged, mean of replicates
# Direction: higher = stronger binding
Strand,E-score
GAAACTCC,-0.332
GTGATAAA,0.233
GGATAAAC,0.144
GACGGGAA,-0.0556
ATCCTTCA,0.134
ACTCTTAA,0.177
ACCTCCCC,-0.244
CGTAATGA,0.0145
CATTATTA,0.422
CATACAAG,0.134

# Sample 3
# Target: Histone acetyltransferase KAT6A, winged helix 2, GST fusion (KAT6A, Homo sapiens, UniProt Q92794, residues 85-181)
# Method: protein binding microarray
# Molecule type: double-stranded DNA, one strand shown
# Medium: in vitro
# Concentration: not given
# Notes: 8-mer, flanks averaged, mean of 2 arrays, mostly near background
# Relative to: not given
# Direction: higher = stronger binding
# Target sequence (chain): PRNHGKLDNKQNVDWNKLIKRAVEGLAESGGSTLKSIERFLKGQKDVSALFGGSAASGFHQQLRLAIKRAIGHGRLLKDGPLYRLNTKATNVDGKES
Strand,E-score
AGTCTTAA,-0.252
CTATCACC,-0.186
TATCTTGA,-0.103
CACGGTGA,-0.00754
AGAGAATG,-0.186
GTACATTA,-0.131
CCCAGAGC,0.0361

# Further values, each from its own experiment
Substance,target,test,test system,conditions,how to read,endpoint,result
"PhoQ, residues 284 288 289 292 302 303 DDMDFR","PhoP, residues 12 14 15 18 19 QQAYL (Escherichia coli, UniProt P23836)","Sort-seq, refers to: YFP reporter",E. coli,"PhoQ-PhoP variant library, with: 10 µM Mg2+","relative to: high Mg2+ state, higher = stronger signaling",fold induction,0.697

# For quick reference, copied from above (sample 2):
Strand,E-score
CATTATTA,0.422
CATACAAG,0.134
